# Measurements from different studies.
# A part holds a random share of what one study measured. Positions count from the first letter of the parent shown.

# Set 1
# Target: Sal-like protein 4, full length isoform B (SALL4, Homo sapiens, UniProt Q9UJQ4-2, residues 1-616)
# Technique: universal PBM
# Molecule type: double-stranded DNA, one strand shown
# Sample: in vitro
# Tested at: not given
# Notes: 8-mer, flanks averaged, mean of replicates
# Reading: higher = stronger binding
# Target sequence (chain): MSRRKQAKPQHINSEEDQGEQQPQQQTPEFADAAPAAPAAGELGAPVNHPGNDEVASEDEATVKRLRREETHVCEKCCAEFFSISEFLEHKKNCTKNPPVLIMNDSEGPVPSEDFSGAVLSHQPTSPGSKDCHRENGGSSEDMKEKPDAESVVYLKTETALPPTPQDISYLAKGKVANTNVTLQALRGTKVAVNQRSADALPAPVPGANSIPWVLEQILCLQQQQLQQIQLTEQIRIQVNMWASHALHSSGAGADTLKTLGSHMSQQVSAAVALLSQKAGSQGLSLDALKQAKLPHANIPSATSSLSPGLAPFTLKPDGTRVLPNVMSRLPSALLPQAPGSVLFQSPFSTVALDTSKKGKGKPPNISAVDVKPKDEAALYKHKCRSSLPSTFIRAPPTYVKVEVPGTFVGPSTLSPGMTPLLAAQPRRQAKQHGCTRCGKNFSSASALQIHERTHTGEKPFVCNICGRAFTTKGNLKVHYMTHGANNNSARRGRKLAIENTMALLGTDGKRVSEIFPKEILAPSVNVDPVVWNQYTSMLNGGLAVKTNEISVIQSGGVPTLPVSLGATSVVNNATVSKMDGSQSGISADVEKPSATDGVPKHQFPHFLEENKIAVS
Oligonucleotide,E-score
ATTTTTTA,0.401
CGGCTGTC,-0.266
AAATTCCA,0.268
ACTTAGAG,0.0314
GACTTCTC,0.0705
CTTTGTAC,0.0911
ACCATTGC,0.0194
AGATGACC,-0.135
ATGGTAAT,0.332
CGGTTTTA,-0.0895
CGCGTAGA,-0.152
GGTTATCA,0.124
CTGTATAA,0.286
GGAGAAAC,-0.0959
GTAGGACA,0.0278
CAAAGTAA,0.164
AAAGCGGA,-0.0246
ATACTCTC,0.232
GGTGGTTA,-0.0726
CGGCCTCC,-0.335
AAGGCTAT,0.0658
AGGGGGTG,-0.19
GATGGAAA,0.0317
AGGTGTTC,-0.0805
CTGCATCC,-0.209

# Set 2
# Target: CCNE1, cyclin fold, Cln2 fusion (human)
# Technique: yeast growth competition, sequencing
# Sample: yeast
# Notes: weak parent motif
# Reference: not given
# Reading: higher = stronger binding
# Starting sequence: CDC6 docking peptide (human); TLKGRRLVFDNQL
Change,normalised enrichment score
T1C,0.279
R6P,1.16
D10S,0.842
V8D,0.377
R6Y,0.599
L13Q,0.787
R5L,0.957
F9R,0.148
K3M,0.239
R5G,0.394
L2W,1.26
R5M,0.274
F9Y,0.0734
D10P,-0.759
T1N,0.845
N11D,0.932
L7S,-0.242
F9Q,-0.344
R6F,-0.17
Q12V,0.697
T1V,1.07
N11R,0.854
K3H,-0.12
N11F,1.03

# Set 3
# Target: Protein max, full length (MAX, Homo sapiens, UniProt P61244-2, residues 1-151)
# Technique: protein-binding microarray
# Molecule type: double-stranded DNA, one strand shown
# Sample: in vitro
# Tested at: not given
# Notes: k-mer, scored over probes, only values ≥0.25
# Reading: higher = stronger binding
Oligonucleotide,E-score
ACGCGGTG,0.327
GGCGTGCA,0.376
GACGCCAC,0.282
ACACGCCG,0.401
AATGTGTG,0.277
ATGCACGG,0.27
ACGTGCAG,0.446
AGTCACAT,0.436
ACACGCTG,0.442
ACGTGAAA,0.359
ACTCCACG,0.334
AACGTGGG,0.414
CGTGCTCA,0.439
CCACATGC,0.47
CAGATGGC,0.299
CATGTCAC,0.335
CGTGCCCA,0.291
ATTACACG,0.265
AGCATGGC,0.426
CATGTCCG,0.296
CCCGTGGA,0.307
CAGGTGGA,0.391
CGTGTGTA,0.385
CCCCATGC,0.414
GGTGGCGA,0.279

# Set 4
# Target: ABI1, truncated, D143A, DHFR fusion (Arabidopsis thaliana, UniProt P49597)
# Technique: DHFR PCA, dose-response
# Sample: yeast
# Notes: Hill fit, mean, not affinity
# With: (+)-ABA, dose series
# Reading: lower = more sensitive
# Starting sequence: PYL1, truncated, DHFR fusion (Arabidopsis thaliana, UniProt Q8VZS8); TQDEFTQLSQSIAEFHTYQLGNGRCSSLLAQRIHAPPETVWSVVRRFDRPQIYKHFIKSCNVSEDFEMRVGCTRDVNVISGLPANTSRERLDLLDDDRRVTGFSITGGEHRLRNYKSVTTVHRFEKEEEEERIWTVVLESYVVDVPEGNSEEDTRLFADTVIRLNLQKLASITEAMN
Change,ABA EC50 [µM]
V136Y,4.76
H122D,25
K58V,23.9
G148A,21.5
E38Q,4.08
S11M,3.4
E129F,3
R88H,3.6
E127D,1.67
G107D,29.8
E131W,16.3
E127T,2.67
R113Y,9.97
R90E,42.3
A170C,2.82
S150N,2.9
R24G,31.9
D159E,6.03
E152N,3.45
E38P,49.3
E129M,2.69
K116W,732
R99A,40.3

# Set 5
# Target: Histone acetyltransferase KAT6A, both winged helices, GST fusion (KAT6A, Homo sapiens, UniProt Q92794, residues 1-181)
# Technique: protein binding microarray
# Molecule type: double-stranded DNA, one strand shown
# Sample: in vitro
# Tested at: not given
# Notes: 8-mer, flanks averaged, mean of 2 arrays, mostly near background
# Reference: not given
# Reading: higher = stronger binding
# Construct (chain): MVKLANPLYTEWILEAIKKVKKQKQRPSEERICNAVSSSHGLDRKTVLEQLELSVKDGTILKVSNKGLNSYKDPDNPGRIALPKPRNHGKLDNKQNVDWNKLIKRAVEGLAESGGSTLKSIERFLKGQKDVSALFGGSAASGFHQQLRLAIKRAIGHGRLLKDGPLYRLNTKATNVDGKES
Oligonucleotide,E-score
AAACCCTT,0.0087
CTAAAGTC,-0.138
ACTAGGTG,-0.185
AACCCGCA,0.134
ACGATCCC,0.0329
CTGTCGCC,0.129
AGTCCGCC,0.11
AAAAAGAT,-0.0661
GCGTTGCA,0.122
CCTAATAC,-0.137
AACAGGCG,0.111
GGCACGCC,0.0952
AGTGCTGG,-0.173
AACAATAA,0.0209
CTTCAGTA,0.0265
CTGCCGCC,0.239
GGTCTGCA,0.0185
GCTTGTAC,0.0318
GTACCGTA,0.221
ACGGGTGC,0.225
CTCCTCAC,-0.127
CCTGCCCA,-0.198
GGGAGAGA,-0.235
ACAAACCT,-0.243

# Set 6
# Target: RING finger protein unkempt homolog, zinc fingers 1-6, GST-SBP tag (UNK, Homo sapiens, UniProt Q9C0B0, residues 30-357)
# Sequence of UniProt Q9C0B0 (30-357, looked up): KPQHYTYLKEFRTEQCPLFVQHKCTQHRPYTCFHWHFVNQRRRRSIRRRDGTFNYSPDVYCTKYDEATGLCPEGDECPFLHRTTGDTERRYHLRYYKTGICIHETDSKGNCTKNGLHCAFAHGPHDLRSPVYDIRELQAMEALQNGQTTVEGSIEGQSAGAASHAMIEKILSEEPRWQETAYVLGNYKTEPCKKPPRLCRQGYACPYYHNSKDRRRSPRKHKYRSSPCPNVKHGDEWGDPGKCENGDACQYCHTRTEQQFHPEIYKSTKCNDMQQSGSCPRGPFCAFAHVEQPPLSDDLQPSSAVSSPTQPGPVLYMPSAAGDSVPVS
# Technique: RNA Bind-n-Seq
# Molecule type: RNA
# Sample: in vitro
# Tested at: not given
# Notes: RNA with constant flanks, human-mouse chimeric sites, ends assumed
# Reference: input RNA pool
# Reading: higher = stronger binding
# Shared flanks, not repeated: GGGAGUUCUACAGUCCGACGAUC … CAACAGAGGAUUGAGCAUCA
Oligonucleotide,bound/input enrichment
GGACAUCUGUCAAAUUGUUAUGUUCCUAAAAACGUAGUGAGCACUUUGAUACACUUCAUCUGCUUGUACAUCUGUAUGAUAGAGAAAUGUAAAUAUGUUAAUCCAAGCAAUGUGUCACUU,0.307 ratio
GCAGGAUCUUCUAAGUACCAGUGGGACAUUAUGAAAUCCCUUGGGCUCUCUGAUGACGACAUAGUGAAGUUUUCUGAAGCAGAACAUUGGCUUGAUUAUUUCCCGCCACUGGCCGUUCAG,0.187 ratio
AGAAUCUGUGACUGGCUUUACUUAAUUGGUCAUUGAUAGCUUAACAAACAUGGAGAUAAGAUUAGAAAUCUUGACAUCAACAGGUAUUAAGCAGAAAAAACCCUGGCCACGUGUCUCCUG,0.14 ratio
GACUUUGGGACUGGUCCUCGCAACGCAGCCUACUAUAGCCCUCAUGGACAUAUAUUAGUGCUGGCUGGAUUUGGAAAUCUGAGGGGACAAAUGGAAGUAUGGGAUGUUAAAAACUACAAG,0.433 ratio
ACUCAGAGAUUAUAUUCCCAAAGUGCUGGGAGUAAAGUCUGAUAUUACACACCUAACUUGAUGGAUAUAUAUUUUUUUUAAUAUGAAUCUUCCUGUUCGUCCAGGGAAGAAAGAUUUGUU,1.51 ratio
GCUGAAAAUGAAGAAGAGGCAGCUGAUGUCUGGUACAACCUGGGGCACAUAGCUGUGGGAAUCGGAGAUACAAAUUUGGCCCAUCAGUGCUUCAGGCUGGCCCUGGUCCACAACAACCAC,0.165 ratio
GAUCUCGGGCCCUCCCCAGGGGCCUCCUUUCGUAUAGUCACUGCUUCUGCAUCAGAUACUUUCAGCUGCAACUCCCUACUGGGUGGGGCACCCAUUUCAGGCAGAAGUUGGUGCCCCCCU,0.123 ratio
UCGGAUGCUGUGCUGGGUCACUUUCCGUAUCCAGAUCCUUCACAGUGGACAGAUGAAGAACUGGGAAUCCCUCCUGAUGACGAGGACUGACACUGUAAACUCUCUGGCACUCUGUACGCA,0.469 ratio
GGAAGUACAAUGAUGGAAAUAGAUGGCGACAAAGGCAAGCAGGGCGGGCCCACCUACUACAUAGAUACCAAUGCCCUCCGCGUGCCCAGGGAGAACAUGGAGGCCAUCUCACCACUCAAG,0.283 ratio
UAAGUUAAGCUUUUAAUCUUUGUAAAUUCUUAACAUUAAUUUGUAAACAUGUUUAUUUUGUUUGGGUAAUUUGGUUCAUUAAGUACAUAGCUAAGGUAAUGAACAUCUUUUUCAGUAAUU,0.393 ratio
GGGGAGAAACCUUACGAGUGUGUGCAGUGUGGGAAAUCGUAUAGUCAGAGCUCAAACCUCUUCAGACAUCAGAGACGACACAAUGCAGAAAAACUUUUGAAUGUUGUGAAAGUUUAAGAA,0.888 ratio

# Other studies, line by line
Molecule,target,assay,system,setting,how to read,endpoint,value
"PhoQ, residues 284 288 289 292 302 303 SSTMSV","PhoP, residues 12 14 15 18 19 NHFIF (Escherichia coli, UniProt P23836)","Sort-seq, refers to: YFP reporter",E. coli,"PhoQ-PhoP variant library, with: 10 µM Mg2+","reference: high Mg2+ state, higher = stronger signaling",fold induction,13

# Repeated from above (set 6):
Oligonucleotide,bound/input enrichment
GGACAUCUGUCAAAUUGUUAUGUUCCUAAAAACGUAGUGAGCACUUUGAUACACUUCAUCUGCUUGUACAUCUGUAUGAUAGAGAAAUGUAAAUAUGUUAAUCCAAGCAAUGUGUCACUU,0.307 ratio
GCAGGAUCUUCUAAGUACCAGUGGGACAUUAUGAAAUCCCUUGGGCUCUCUGAUGACGACAUAGUGAAGUUUUCUGAAGCAGAACAUUGGCUUGAUUAUUUCCCGCCACUGGCCGUUCAG,0.187 ratio
AGAAUCUGUGACUGGCUUUACUUAAUUGGUCAUUGAUAGCUUAACAAACAUGGAGAUAAGAUUAGAAAUCUUGACAUCAACAGGUAUUAAGCAGAAAAAACCCUGGCCACGUGUCUCCUG,0.14 ratio
GACUUUGGGACUGGUCCUCGCAACGCAGCCUACUAUAGCCCUCAUGGACAUAUAUUAGUGCUGGCUGGAUUUGGAAAUCUGAGGGGACAAAUGGAAGUAUGGGAUGUUAAAAACUACAAG,0.433 ratio
ACUCAGAGAUUAUAUUCCCAAAGUGCUGGGAGUAAAGUCUGAUAUUACACACCUAACUUGAUGGAUAUAUAUUUUUUUUAAUAUGAAUCUUCCUGUUCGUCCAGGGAAGAAAGAUUUGUU,1.51 ratio
GCUGAAAAUGAAGAAGAGGCAGCUGAUGUCUGGUACAACCUGGGGCACAUAGCUGUGGGAAUCGGAGAUACAAAUUUGGCCCAUCAGUGCUUCAGGCUGGCCCUGGUCCACAACAACCAC,0.165 ratio
GAUCUCGGGCCCUCCCCAGGGGCCUCCUUUCGUAUAGUCACUGCUUCUGCAUCAGAUACUUUCAGCUGCAACUCCCUACUGGGUGGGGCACCCAUUUCAGGCAGAAGUUGGUGCCCCCCU,0.123 ratio
UCGGAUGCUGUGCUGGGUCACUUUCCGUAUCCAGAUCCUUCACAGUGGACAGAUGAAGAACUGGGAAUCCCUCCUGAUGACGAGGACUGACACUGUAAACUCUCUGGCACUCUGUACGCA,0.469 ratio
GGAAGUACAAUGAUGGAAAUAGAUGGCGACAAAGGCAAGCAGGGCGGGCCCACCUACUACAUAGAUACCAAUGCCCUCCGCGUGCCCAGGGAGAACAUGGAGGCCAUCUCACCACUCAAG,0.283 ratio
UAAGUUAAGCUUUUAAUCUUUGUAAAUUCUUAACAUUAAUUUGUAAACAUGUUUAUUUUGUUUGGGUAAUUUGGUUCAUUAAGUACAUAGCUAAGGUAAUGAACAUCUUUUUCAGUAAUU,0.393 ratio
GGGGAGAAACCUUACGAGUGUGUGCAGUGUGGGAAAUCGUAUAGUCAGAGCUCAAACCUCUUCAGACAUCAGAGACGACACAAUGCAGAAAAACUUUUGAAUGUUGUGAAAGUUUAAGAA,0.888 ratio
